Measured values collected from several papers.
Each numbered part is a random draw from the data of one study; scales do not carry over between parts.
Sequence of UniProt P42336 (whole entry, unmodified, looked up): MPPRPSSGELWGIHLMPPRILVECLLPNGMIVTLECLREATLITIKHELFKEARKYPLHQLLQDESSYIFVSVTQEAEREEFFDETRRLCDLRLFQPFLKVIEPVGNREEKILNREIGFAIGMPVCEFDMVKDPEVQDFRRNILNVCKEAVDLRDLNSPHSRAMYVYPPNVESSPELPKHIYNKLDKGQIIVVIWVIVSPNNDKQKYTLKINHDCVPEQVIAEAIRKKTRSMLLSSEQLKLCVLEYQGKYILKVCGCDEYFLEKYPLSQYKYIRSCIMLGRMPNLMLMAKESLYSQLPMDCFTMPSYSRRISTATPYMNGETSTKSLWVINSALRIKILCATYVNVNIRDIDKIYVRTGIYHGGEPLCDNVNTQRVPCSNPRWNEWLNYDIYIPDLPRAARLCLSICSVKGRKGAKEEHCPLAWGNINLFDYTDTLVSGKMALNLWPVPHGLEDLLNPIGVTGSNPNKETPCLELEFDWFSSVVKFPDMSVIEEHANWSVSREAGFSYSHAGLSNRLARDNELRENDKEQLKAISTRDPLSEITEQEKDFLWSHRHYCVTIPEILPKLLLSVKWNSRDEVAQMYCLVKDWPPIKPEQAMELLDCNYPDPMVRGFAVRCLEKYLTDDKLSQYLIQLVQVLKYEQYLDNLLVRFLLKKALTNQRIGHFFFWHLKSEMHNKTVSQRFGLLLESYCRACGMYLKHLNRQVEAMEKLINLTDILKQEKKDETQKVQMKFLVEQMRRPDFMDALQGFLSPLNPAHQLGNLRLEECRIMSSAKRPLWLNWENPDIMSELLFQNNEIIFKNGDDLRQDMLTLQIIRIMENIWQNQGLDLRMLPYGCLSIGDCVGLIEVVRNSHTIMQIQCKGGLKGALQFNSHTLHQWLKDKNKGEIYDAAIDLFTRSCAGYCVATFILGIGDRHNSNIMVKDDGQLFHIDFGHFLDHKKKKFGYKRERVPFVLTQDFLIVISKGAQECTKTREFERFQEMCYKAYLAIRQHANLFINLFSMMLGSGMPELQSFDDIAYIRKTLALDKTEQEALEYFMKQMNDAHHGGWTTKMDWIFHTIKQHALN
Sequence of UniProt Q15208 (whole entry, looked up): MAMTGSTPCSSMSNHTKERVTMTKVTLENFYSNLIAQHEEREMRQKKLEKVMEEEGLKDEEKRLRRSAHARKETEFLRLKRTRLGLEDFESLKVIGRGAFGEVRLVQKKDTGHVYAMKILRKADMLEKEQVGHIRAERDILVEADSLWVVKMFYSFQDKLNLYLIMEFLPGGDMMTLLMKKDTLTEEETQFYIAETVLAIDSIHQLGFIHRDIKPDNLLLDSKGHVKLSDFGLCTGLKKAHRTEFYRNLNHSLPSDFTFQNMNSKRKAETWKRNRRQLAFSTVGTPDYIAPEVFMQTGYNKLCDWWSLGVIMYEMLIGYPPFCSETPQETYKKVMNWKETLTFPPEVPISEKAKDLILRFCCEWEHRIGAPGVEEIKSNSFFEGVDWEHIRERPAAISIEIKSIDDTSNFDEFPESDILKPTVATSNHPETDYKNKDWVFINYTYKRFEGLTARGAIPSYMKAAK
Sequence of UniProt P48729 (whole entry, looked up): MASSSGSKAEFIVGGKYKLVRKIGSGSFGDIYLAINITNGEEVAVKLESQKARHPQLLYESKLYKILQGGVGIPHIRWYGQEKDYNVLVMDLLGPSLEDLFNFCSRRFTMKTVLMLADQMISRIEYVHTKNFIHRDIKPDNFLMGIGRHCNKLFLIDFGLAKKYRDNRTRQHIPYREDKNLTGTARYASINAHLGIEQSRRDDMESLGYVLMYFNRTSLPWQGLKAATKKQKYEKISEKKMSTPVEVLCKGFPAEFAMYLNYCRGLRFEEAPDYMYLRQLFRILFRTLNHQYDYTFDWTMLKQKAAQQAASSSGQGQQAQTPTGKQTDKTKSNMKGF
Sequence of UniProt P54756 (whole entry, looked up): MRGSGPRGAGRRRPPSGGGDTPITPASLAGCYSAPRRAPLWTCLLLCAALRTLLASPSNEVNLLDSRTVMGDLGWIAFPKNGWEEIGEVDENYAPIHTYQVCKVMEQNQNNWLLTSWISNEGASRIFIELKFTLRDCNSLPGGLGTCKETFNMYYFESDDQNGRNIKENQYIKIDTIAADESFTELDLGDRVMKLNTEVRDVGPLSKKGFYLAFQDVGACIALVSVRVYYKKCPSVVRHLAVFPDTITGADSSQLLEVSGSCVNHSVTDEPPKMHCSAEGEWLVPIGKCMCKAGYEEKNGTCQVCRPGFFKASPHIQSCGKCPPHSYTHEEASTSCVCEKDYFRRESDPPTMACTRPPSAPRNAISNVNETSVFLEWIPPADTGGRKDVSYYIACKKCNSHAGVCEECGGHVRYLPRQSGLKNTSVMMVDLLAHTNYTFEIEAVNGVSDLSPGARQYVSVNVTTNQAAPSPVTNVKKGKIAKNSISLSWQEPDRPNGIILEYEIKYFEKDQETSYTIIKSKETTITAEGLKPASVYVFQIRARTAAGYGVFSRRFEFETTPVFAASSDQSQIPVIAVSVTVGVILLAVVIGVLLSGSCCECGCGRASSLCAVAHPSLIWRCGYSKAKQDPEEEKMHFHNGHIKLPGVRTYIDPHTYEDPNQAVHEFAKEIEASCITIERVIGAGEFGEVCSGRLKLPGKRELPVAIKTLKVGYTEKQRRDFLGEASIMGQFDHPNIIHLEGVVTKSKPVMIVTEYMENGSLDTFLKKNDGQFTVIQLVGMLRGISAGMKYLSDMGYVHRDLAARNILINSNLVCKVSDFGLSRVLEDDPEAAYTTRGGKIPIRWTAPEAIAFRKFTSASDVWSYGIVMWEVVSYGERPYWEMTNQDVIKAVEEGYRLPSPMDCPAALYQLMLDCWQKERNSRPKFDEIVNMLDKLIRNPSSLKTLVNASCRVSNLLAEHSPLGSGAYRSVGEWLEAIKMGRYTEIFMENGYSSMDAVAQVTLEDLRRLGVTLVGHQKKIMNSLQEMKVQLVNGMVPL
Sequence of UniProt Q9UIK4 (whole entry, looked up): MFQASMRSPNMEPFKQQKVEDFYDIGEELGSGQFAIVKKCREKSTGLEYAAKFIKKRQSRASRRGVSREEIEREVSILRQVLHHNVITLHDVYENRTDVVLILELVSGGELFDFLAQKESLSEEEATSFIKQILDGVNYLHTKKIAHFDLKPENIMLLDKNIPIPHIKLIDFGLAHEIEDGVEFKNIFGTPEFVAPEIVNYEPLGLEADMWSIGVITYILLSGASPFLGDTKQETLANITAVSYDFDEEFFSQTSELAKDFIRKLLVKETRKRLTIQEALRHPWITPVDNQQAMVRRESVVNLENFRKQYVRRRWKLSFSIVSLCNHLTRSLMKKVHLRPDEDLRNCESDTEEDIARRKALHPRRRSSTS
Sequence of UniProt Q9Y6E0 (whole entry, looked up): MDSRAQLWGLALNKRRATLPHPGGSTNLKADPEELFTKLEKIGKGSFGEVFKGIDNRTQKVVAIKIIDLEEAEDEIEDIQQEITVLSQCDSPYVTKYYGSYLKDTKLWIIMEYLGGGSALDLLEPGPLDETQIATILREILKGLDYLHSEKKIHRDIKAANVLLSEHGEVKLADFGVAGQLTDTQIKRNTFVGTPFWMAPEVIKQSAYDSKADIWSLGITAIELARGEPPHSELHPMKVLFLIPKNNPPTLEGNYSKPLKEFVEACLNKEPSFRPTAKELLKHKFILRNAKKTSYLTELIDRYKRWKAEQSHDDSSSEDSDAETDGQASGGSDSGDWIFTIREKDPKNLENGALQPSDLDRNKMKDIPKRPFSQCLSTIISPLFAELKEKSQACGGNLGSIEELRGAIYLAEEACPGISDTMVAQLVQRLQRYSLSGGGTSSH

Block 1 — observed: transporter inhibition; action: inhibitor; endpoint: IC50
Target: Synaptic vesicular amine transporter (SLC18A2, Homo sapiens, UniProt Q05940)
Sequence of UniProt Q05940 (whole entry, looked up): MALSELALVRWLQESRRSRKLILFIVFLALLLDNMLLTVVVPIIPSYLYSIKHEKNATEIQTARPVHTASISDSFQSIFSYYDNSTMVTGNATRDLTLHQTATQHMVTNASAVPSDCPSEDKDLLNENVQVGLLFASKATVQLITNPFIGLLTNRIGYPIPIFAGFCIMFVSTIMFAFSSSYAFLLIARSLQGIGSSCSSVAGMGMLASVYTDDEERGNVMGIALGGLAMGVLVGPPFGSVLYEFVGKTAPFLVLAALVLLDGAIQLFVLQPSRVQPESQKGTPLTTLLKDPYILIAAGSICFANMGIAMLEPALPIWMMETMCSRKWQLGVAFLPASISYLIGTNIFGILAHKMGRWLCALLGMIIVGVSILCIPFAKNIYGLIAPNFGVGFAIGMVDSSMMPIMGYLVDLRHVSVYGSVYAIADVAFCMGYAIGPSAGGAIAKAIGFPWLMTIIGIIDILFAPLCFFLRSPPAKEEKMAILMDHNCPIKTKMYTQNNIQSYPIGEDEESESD
CC(C)NCC(O)COc1ccc(CCOCC2CC2)cc1 (centres unmarked): 9.8 µM
C#CCN[C@@H]1CCc2ccccc21: > 10 µM
Oc1ccc(CCCCNC[C@H](O)c2ccc(O)c(O)c2)cc1: 0.02 µM
CCCCN(CCCC)CCC(O)c1cc2c(Cl)cc(Cl)cc2c2cc(C(F)(F)F)ccc12 (centres unmarked): 0.94 µM
O=C1CC2(CCCC2)CC(=O)N1CCCCN1CCN(c2ncccn2)CC1: 2.19 µM
OCCOCCN1CCN(C2=Nc3ccccc3Sc3ccccc32)CC1: > 10 µM
CN(C)C(=O)N[C@H]1CC[C@H](CCN2CCN(c3cccc(Cl)c3Cl)CC2)CC1: 0.845 µM
CNCCCC12CCC(c3ccccc31)c1ccccc12: 1.14 µM
NC(=O)c1cccc2cn(-c3ccc([C@@H]4CCCNC4)cc3)nc12: 6.1 µM
CNCC[C@H](Oc1cccc2ccccc12)c1cccs1: 3.03 µM
O=C1CN(/N=C/c2ccc([N+](=O)[O-])o2)C(=O)N1: > 10 µM
CNCCC=C1c2ccccc2CCc2ccccc21: 6.8 µM
Cc1ccccc1N1CCN(CCc2nnc3n2CCCC3)CC1: 0.566 µM
OC(CCN1CCCCC1)(c1ccccc1)C1CCCCC1 (centres unmarked): 5.54 µM

Block 2 — SMILES: Nc1ncnc2c1cnn2-c1ccccc1; observed: enzyme activity; action: inhibitor; concentration: 0.5 µM; reference: control; endpoint: remaining activity
MAP4K2 (Homo sapiens, UniProt Q12851): 94.9%
MAPK12 (Homo sapiens, UniProt P53778): 90.6%
MAP3K10 (Homo sapiens, UniProt Q02779): 88.6%
PLK2 (Homo sapiens, UniProt Q9NYY3): 99.2%
AKT3 (Homo sapiens, UniProt Q9Y243): 102%
STK38 (Homo sapiens, UniProt Q15208): 98.6%
MAP2K6 (Homo sapiens, UniProt P52564): 90.8%
IRAK4 (Homo sapiens, UniProt Q9NWZ3): 89.4%
PRKCI (Homo sapiens, UniProt P41743): 97.3%
Cyclin-dependent kinase 9, with cyclin T1 (CDK9, Homo sapiens, UniProt P50750): 109%
BTK (Homo sapiens, UniProt Q06187): 98.7%
CSNK2A1 (Homo sapiens, UniProt P68400): 94.4%
KIT (Homo sapiens, UniProt P10721): 89.5%
LRRK2 (Homo sapiens, UniProt Q5S007): 99.3%
LYN (Homo sapiens, UniProt P07948): 102%
CSNK1A1 (Homo sapiens, UniProt P48729): 79.8%
PRKG1 (Homo sapiens, UniProt Q13976): 91.3%
WNK2 (Homo sapiens, UniProt Q9Y3S1): 114%
CHEK1 (Homo sapiens, UniProt O14757): 92.5%
MKNK2 (Homo sapiens, UniProt Q9HBH9): 72.7%
EPHA5 (Homo sapiens, UniProt P54756): 95.6%
PRKCD (Homo sapiens, UniProt Q05655): 93%
NEK4 (Homo sapiens, UniProt P51957): 98.7%

Block 3 — concentration: 1 µM; endpoint: remaining binding
SMILES: Cc1cc(NC(=O)c2cccc(S(F)(F)(F)(F)F)c2)cc(-n2ccn3nc(-c4cccnc4)cc23)c1
Tyrosine-protein kinase ABL1, phosphorylated (ABL1, Homo sapiens, UniProt P00519, F317I); binding: 100%
PTK2 (Homo sapiens, UniProt Q05397); cell-free assay, competition with immobilised ligand: 96.4%
PTK2B (Homo sapiens, UniProt Q14289); cell-free assay, competition with immobilised ligand: 100%
EPHA2 (Homo sapiens, UniProt P29317); cell-free assay, competition with immobilised ligand: 100%
DAPK2 (Homo sapiens, UniProt Q9UIK4); cell-free assay, competition with immobilised ligand: 100%
BRAF (Homo sapiens, UniProt P15056); cell-free assay, competition with immobilised ligand: 43.5%
STK35 (Homo sapiens, UniProt Q8TDR2); cell-free assay, competition with immobilised ligand: 100%
PIK3CA (Homo sapiens, UniProt P42336, H1047L); cell-free assay, competition with immobilised ligand: 100%
PIK3CA (Homo sapiens, UniProt P42336, E545A); cell-free assay, competition with immobilised ligand: 69.2%
RET (Homo sapiens, UniProt P07949, V804M); cell-free assay, competition with immobilised ligand: 74.2%
GSK3A (Homo sapiens, UniProt P49840); cell-free assay, competition with immobilised ligand: 100%
ACVR2B (Homo sapiens, UniProt Q13705); cell-free assay, competition with immobilised ligand: 100%
FLT3 (Homo sapiens, UniProt P36888, R834Q); cell-free assay, competition with immobilised ligand: 100%
TEK (Homo sapiens, UniProt Q02763); cell-free assay, competition with immobilised ligand: 84.2%
MAP4K1 (Homo sapiens, UniProt Q92918); cell-free assay, competition with immobilised ligand: 82.1%
PTK6 (Homo sapiens, UniProt Q13882); cell-free assay, competition with immobilised ligand: 100%
TYRO3 (Homo sapiens, UniProt Q06418); cell-free assay, competition with immobilised ligand: 88.4%
GRK2 (Homo sapiens, UniProt P25098); cell-free assay, competition with immobilised ligand: 74.5%
PNCK (Homo sapiens, UniProt Q6P2M8); cell-free assay, competition with immobilised ligand: 100%
EGFR (Homo sapiens, UniProt P00533, G719C); cell-free assay, competition with immobilised ligand: 94.2%
ALK (Homo sapiens, UniProt Q9UM73); cell-free assay, competition with immobilised ligand: 68.1%
STK24 (Homo sapiens, UniProt Q9Y6E0); cell-free assay, competition with immobilised ligand: 100%
Tyrosine-protein kinase JAK1, JH2 (JAK1, Homo sapiens, UniProt P23458); cell-free assay, competition with immobilised ligand: 28.7%
Tyrosine-protein kinase ABL1, non-phosphorylated (ABL1, Homo sapiens, UniProt P00519, T315I); cell-free assay, competition with immobilised ligand: 88.9%
ANKK1 (Homo sapiens, UniProt Q8NFD2); cell-free assay, competition with immobilised ligand: 100%

Block 4 — observed: enzyme activity; action: inhibitor; concentration: 10 µM; endpoint: inhibition
Target: Calcium/calmodulin-dependent protein kinase type II subunit alpha (CAMK2A, Homo sapiens, UniProt Q9UQM7)
Sequence of UniProt Q9UQM7 (whole entry, looked up): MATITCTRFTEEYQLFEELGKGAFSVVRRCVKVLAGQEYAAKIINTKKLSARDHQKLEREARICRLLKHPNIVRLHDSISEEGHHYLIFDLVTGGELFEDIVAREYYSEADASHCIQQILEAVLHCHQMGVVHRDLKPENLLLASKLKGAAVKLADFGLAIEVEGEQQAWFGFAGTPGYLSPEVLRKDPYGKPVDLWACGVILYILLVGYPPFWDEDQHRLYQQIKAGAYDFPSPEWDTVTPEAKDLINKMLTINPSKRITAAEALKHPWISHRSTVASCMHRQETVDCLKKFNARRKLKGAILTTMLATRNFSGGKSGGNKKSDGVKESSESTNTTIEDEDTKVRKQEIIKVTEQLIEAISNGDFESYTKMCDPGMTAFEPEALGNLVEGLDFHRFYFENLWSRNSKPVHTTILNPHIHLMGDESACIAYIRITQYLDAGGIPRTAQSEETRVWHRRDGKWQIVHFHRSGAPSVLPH
CCCCCC1C(=O)CCC1CC(=O)OC (centres unmarked): 29%
O=C(N[C@@H](c1ccccc1)[C@@H](O)C(=O)O)c1ccccc1: 5%
C[C@@H]1C(=O)O[C@H]2C[C@@]34[C@H]5C[C@@H](C(C)(C)C)[C@]36[C@@H](OC(=O)[C@@H]6O)O[C@@]4(C(=O)O5)[C@]21O: -2%
CC(C)CCC[C@@H](C)[C@H]1CC[C@H]2[C@@H]3CC=C4C[C@@H](O)CC[C@]4(C)[C@H]3CC[C@]12C: 26%
COC(=O)[C@@]12OC[C@]34[C@H]([C@@H](O)[C@@H]1O)[C@@]1(C)CC(=O)C(O)=C(C)[C@@H]1C[C@H]3OC(=O)[C@H](OC(C)=O)[C@@H]24: -10%
COc1cc(-c2oc3cc(OC)c(OC)c(O)c3c(=O)c2OC)ccc1O: -57%
C[C@]12CC[C@@H]3c4ccc(O)cc4CC[C@H]3[C@@H]1CC[C@@H]2O: 16%
C/C=C(/C)C(=O)O[C@H]1C(C)=C[C@]23C(=O)[C@@H](C=C(CO)[C@@H](O)[C@]12O)[C@H]1[C@@H](C[C@H]3C)C1(C)C: 1%
CC1(C)CCC[C@]2(C)[C@H]3CCO[C@]3(C)CC[C@@H]12: -3%
CC(C)(C)c1ccc(C(O)CCCN2CCC(C(O)(c3ccccc3)c3ccccc3)CC2)cc1 (centres unmarked): -6%
CC[C@@]1(O)C(=O)OCc2c1cc1n(c2=O)Cc2c-1nc1ccccc1c2CCNC(C)C: -8%
CCOC(=O)c1ccc(N)cc1: 3%
